Assay results from different studies.
Each line is one published result; not all experiments were run side by side. Values joined by “and” are separate records of one study, mostly repeats; a detail may differ. ± gives the spread as reported. Converted amounts (≈) assume the structure as drawn.

COc1ccccc1-c1n[nH]c2nc(N[C@H]3CC[C@H](NS(=O)(=O)CC(C)C)CC3)ncc12  relative abundance (bead binding, competition bead pull-down, measured: LINJ.26.1590; Leishmania donovani extract; 10 µM; baseline: vehicle): 1.03
CCc1nnc(-c2c(OC)cc(-c3cnc4cc(-c5cnn(C)c5)ccn34)cc2OC)o1  osteoblast surface/bone surface (histomorphometry; male C57BL/6J mouse, tibia; oral gavage, 40 mg/kg once daily, 3 wk): 8.07 ± 0.41%
CCCCCC1=C(NCC)C(=O)C(C/C=C(\C)CCC=C(C)C)=C(O)C1=O  normalised enrichment score (RNA-seq, measured: Stat2 regulon; mouse, striatum; dose not given; direction not given): 2.21
COc1ccccc1-c1n[nH]c2nc(NC3CCN(C(=O)Cc4ccc(F)cc4F)CC3)ncc12  relative abundance (bead binding, competition bead pull-down, measured: LINJ.22.0350; Leishmania donovani axenic amastigote extract; 10 µM; baseline: vehicle): 1.1
O=C(O)c1ccc(-c2nc(-c3ccccc3Cl)c3sccn23)cc1  platelet count change (C57BL/6 mice; dose not given, day 17, basal hematopoiesis): 134% and 157% and 106%
COC(=O)C1CN1S(=O)(=O)c1ccc(C)cc1 (centres unmarked)  tumour growth inhibition (mouse Lewis lung carcinoma; intraperitoneal, 100 mg/kg, day 13): 66%
Cc1sc2c(c1C)C(c1ccc(-c3cccc(NC(=O)c4cnn5cccnc45)c3)cc1)=N[C@@H](CC(N)=O)c1nnc(C)n1-2  tumour growth inhibition (mouse, MV4-11 subcutaneous xenograft; 10 mg/kg daily, 14 days): 119%
CC(C)C[C@H](NC(=O)[C@H](CCC(=O)O)NC(=O)[C@H](Cc1ccccc1)NC(=O)[C@@H]1CCCN1C(=O)CNC(=O)OCc1ccccc1)C(=O)N[C@@H](CCC(=O)O)C(=O)N[C@@H](CCCNC(=N)N)C(=O)N[C@@H](CCCNC(=N)N)C(=O)N[C@@H](Cc1ccccc1)C(=O)N[C@@H](CCCCN)C(=O)N[C@@H](CCC(N)=O)C(=O)N[C@@H](CCC(N)=O)C(=O)O  perfusion fraction f (mouse xenograft, orthotopic tumour; dose not given): 0.117 and 0.118 and 0.114
O=P(O)(O)Oc1c2c(c(OP(=O)(O)O)c3c1C1CC3c3cc4ccccc4cc31)C1CC2c2cc3ccccc3cc21  association constant (1H NMR titration, measured: choline N-methyl signal; methanol-d4; with: DOPC): 75 ± 9 M⁻¹
CCCC[C@@H]1NC(=O)[C@H](Cc2ccc(O)cc2)NC(=O)[C@@H]2CCCN2C(=O)[C@H](CC(=O)O)NC(=O)[C@H](C)NC(=O)[C@H](Cc2ccccc2)NC(=O)[C@@H]2CSCCC(=O)N3CN(CN(C3)C(=O)CCSC[C@@H](C(=O)N[C@@H](C)C(N)=O)NC1=O)C(=O)CCSC[C@H](NC(C)=O)C(=O)N[C@@H](CC(C)(C)C)C(=O)N1CCC[C@H]1C(=O)N[C@@H](CCC(=O)O)C(=O)N[C@H](CCCCNC(=O)CCc1cn(CCOCCOCCOCCN(CCOCCOCCOCCC(=O)N[C@H]3CSCCC(=O)N4CN5CN(C4)C(=O)CCSC[C@H](NC(=O)[C@@H](CC(=O)O)NC(=O)[C@H](Cc4cccc6ccccc46)NC(=O)[C@@H]4CCCN4C3=O)C(=O)N[C@@H](CCSC)C(=O)N[C@@H](CCCCNC(=N)N)C(=O)N[C@@H](CC(=O)O)C(=O)N[C@@H](Cc3c[nH]c4ccccc34)C(=O)N[C@@H](CO)C(=O)N[C@@H]([C@@H](C)O)C(=O)N3CCC[C@H]3C(=O)N3C[C@H](O)C[C@H]3C(=O)N[C@@H](Cc3c[nH]c4ccccc34)C(=O)N[C@H](C(N)=O)CSCCC5=O)CCOCCOCCOCCn3cc(CCC(=O)NCCCC[C@H]4NC(=O)[C@H](CCC(=O)O)NC(=O)[C@@H]5CCCN5C(=O)[C@H](CC(C)(C)C)NC(=O)[C@@H](NC(C)=O)CSCCC(=O)N5CN6CN(C5)C(=O)CCSC[C@H](NC(=O)[C@H](Cc5ccc(O)cc5)NC(=O)[C@@H]5CCCN5C4=O)C(=O)N[C@@H](Cc4ccccc4)C(=O)N[C@@H](C)C(=O)N[C@@H](CC(=O)O)C(=O)N4CCC[C@H]4C(=O)N[C@@H](Cc4ccc(O)cc4)C(=O)N[C@@H](CCCC)C(=O)N[C@H](C(=O)N[C@@H](C)C(N)=O)CSCCC6=O)nn3)nn1)C(=O)N1CCC[C@H]1C(=O)N[C@@H](Cc1ccc(O)cc1)C(=O)N2  mRNA level (NanoString, measured: Xbp1-mRNA; mouse bearing MC38-Nectin-4 tumour, circulating white blood cells; 5 mg/kg, 24 h after dosing, unit not given; baseline: vehicle): 1.58
CC[C@H](C)[C@H](N)C(=O)N[C@@H](CO)C(=O)N[C@@H](Cc1ccc(O)cc1)C(=O)NCC(=O)NCC(=O)N[C@@H](C)C(=O)N[C@@H](CC(=O)O)C(=O)N[C@@H](Cc1ccc(O)cc1)C(=O)N[C@@H](CCCCN)C(=O)O  ED50 (formalin pain, second phase; mouse; intrathecal, 5 min before formalin, with: formalin 5%): 0.63 nmol
COc1ccc2c(c1OC)C[NH+]1CCc3cc4c(cc3C1C2)OCO4.[Cl][Fe-]([Cl])([Cl])[Cl] (centres unmarked)  DPPH scavenging (1.0 mg/mL, 30 min, 25 °C): 47.2%
Cc1cc(O)cc(C)c1C[C@H](N)C(=O)N[C@H](CCCNC(=N)N)C(=O)N[C@@H](Cc1ccccc1)C(=O)N[C@@H](CCCCN)C(=O)NCCNC(=O)[C@@H]1Cc2ccccc2CN1C(=O)[C@@H](N)Cc1c(C)cc(O)cc1C  IC50 (agonist; guinea pig ileum): 284 ± 32 nM
CCN(Cc1ccccc1)C(=O)CCc1nc(CN2CCN(C(=O)Cc3ccc(OC)c(OC)c3)CC2)no1  action potential number (current clamp; DRG neurons, naive rat; 10 µM, with: 500 pA current injection): 0.67 ± 0.09
Cc1ccc(C2=CC(C)(C)Oc3ccc(-c4ccc(-c5ccc(C(=O)O)cc5)[nH]4)cc32)cc1  cauda epididymal sperm count (CD1 mouse, male; 10 mg/kg, 0 week after end of treatment, dosed for 4 weeks): 3.4 and 5.4 and 12.2 and 3.3 and 2.8
CC[C@H](C)[C@H](NC(=O)[C@H](CC(C)C)NC(=O)[C@H](CC(=O)O)NC(=O)[C@H](CCCNC(=N)N)NC(=O)[C@H](Cc1c[nH]c2ccccc12)NC(=O)[C@@H](N)CC(C)C)C(=O)N[C@@H](CS)C(=O)N[C@@H](CC(C)C)C(=O)N[C@@H](CS)C(=O)N[C@@H](CCCNC(=N)N)C(=O)N[C@@H](CC(N)=O)C(=O)N[C@@H](CCCNC(=N)N)C(=O)N[C@@H](CCCNC(=N)N)C(=O)N[C@@H](CS)C(=O)N[C@@H](CC(N)=O)C(=O)N[C@@H](CCCNC(=N)N)C(=O)NCC(=O)N[C@@H](CCC(N)=O)C(=O)N[C@@H](CC(C)C)C(=O)N[C@@H](Cc1ccccc1)C(=O)N1CCC[C@H]1C(=O)NCC(=O)N[C@@H](Cc1c[nH]c2ccccc12)C(=O)N[C@@H](CS)C(=O)N1CCC[C@H]1C(=O)NCC(=O)N[C@@H](Cc1c[nH]c2ccccc12)C(=O)N[C@@H](Cc1c[nH]c2ccccc12)C(=O)N[C@@H](CC(C)C)C(=O)N[C@@H](CCCNC(=N)N)C(=O)N[C@@H](CS)C(=O)N[C@@H](CS)C(=O)N[C@@H](CCCNC(=N)N)C(=O)N[C@@H](CCCNC(=N)N)C(N)=O  colon length (female C57BL/6J mice, DSS colitis; 5 mg/kg, 7 days): 7.12 ± 0.82 cm
CC[C@H](C)[C@H](NC(=O)[C@H](CCCNC(=N)N)NC(=O)[C@H](CO)NC(=O)[C@H](Cc1ccc(O)cc1)NC(=O)[C@@H](NC(=O)[C@@H](NC(=O)[C@H](C)NC(=O)CNC(=O)[C@H](CCCCN)NC(=O)[C@H](CCCCN)NC(=O)CCNC(=O)CCCCCNC(=O)[C@H](CCCNC(=N)N)NC(=O)CCCCCNC(=O)[C@H](CCCNC(=N)N)NC(=O)[C@H](CCCNC(=N)N)NC(=O)CCCCCNC(=O)[C@H](CCCNC(=N)N)NC(=O)[C@H](CCCNC(=N)N)NC(=O)CCCCCNC(=O)[C@H](CCCNC(=N)N)NC(=O)[C@H](CCCNC(=N)N)NC(=O)CCCCCNC(=O)[C@@H](N)CCCNC(=N)N)C(C)C)[C@@H](C)O)C(=O)N[C@@H](CO)C(=O)NCC(=O)N[C@@H](CCC(N)=O)C(=O)N[C@@H](Cc1ccc(O)cc1)C(=O)N[C@@H](CCCCN)C(=O)O  MIC (broth microdilution; 168, Mueller-Hinton broth; 16 to 18 h, 37 °C): 3 µM (≈ 10.7 µg/mL)

Some of these lines once more:
COc1ccccc1-c1n[nH]c2nc(NC3CCN(C(=O)Cc4ccc(F)cc4F)CC3)ncc12  relative abundance (bead binding, competition bead pull-down, measured: LINJ.22.0350; Leishmania donovani axenic amastigote extract; 10 µM; baseline: vehicle): 1.1
COc1ccccc1-c1n[nH]c2nc(N[C@H]3CC[C@H](NS(=O)(=O)CC(C)C)CC3)ncc12  relative abundance (bead binding, competition bead pull-down, measured: LINJ.26.1590; Leishmania donovani extract; 10 µM; baseline: vehicle): 1.03
CCc1nnc(-c2c(OC)cc(-c3cnc4cc(-c5cnn(C)c5)ccn34)cc2OC)o1  osteoblast surface/bone surface (histomorphometry; male C57BL/6J mouse, tibia; oral gavage, 40 mg/kg once daily, 3 wk): 8.07 ± 0.41%
